Published values gathered from unrelated publications.
A part holds a random share of what one study measured. Changes are numbered by the printed parent chain.

Study 1
Target: CCNB2, cyclin fold, Cln2 fusion (human)
Method: yeast growth competition, sequencing
Matrix: yeast
Setting: weak parent motif
Reference: not given
Reading: higher = stronger binding
Starting sequence: RBL1 docking peptide (human); GSAKRRLFGEDPP
| Change | normalised enrichment score |
| --- | --- |
| GSAKRRLFGEDGP [P12G] | 0.0886 |
| GSAKRRLFGEDEP [P12E] | 0.647 |
| GSAKRRLFGEDPI [P13I] | 0.496 |
| GSAKRRLFGEDPL [P13L] | 0.682 |
| GSAKCRLFGEDPP [R5C] | -0.322 |
| GSAKRRLFGEDYP [P12Y] | 0.354 |
| GSAKRRLFGEDAP [P12A] | 0.568 |

Study 2
Target: CRIPT, C-terminal peptide
Method: DHFR complementation, deep sequencing
Matrix: yeast
Setting: single substitutions, model-inferred values
Reference: wild type
Reading: higher = weaker binding
Starting sequence: ERBIN, PDZ domain 1 (human); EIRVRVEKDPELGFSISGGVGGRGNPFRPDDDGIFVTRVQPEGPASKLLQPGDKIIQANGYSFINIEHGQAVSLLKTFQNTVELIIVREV; partner TKNYKQTSV
| Change | binding free energy change |
| --- | --- |
| L74C | 0.101 kcal/mol |
| F35H | 0.724 kcal/mol |
| D53L | 0.948 kcal/mol |

Study 3
Target: Histone acetyltransferase KAT6A, both winged helices, GST fusion (KAT6A, Homo sapiens, UniProt Q92794, residues 1-181)
Method: protein binding microarray
Molecule type: double-stranded DNA, one strand shown
Matrix: in vitro
Tested at: not given
Setting: 8-mer, flanks averaged, mean of 2 arrays, mostly near background
Reference: not given
Reading: higher = stronger binding
Construct (chain): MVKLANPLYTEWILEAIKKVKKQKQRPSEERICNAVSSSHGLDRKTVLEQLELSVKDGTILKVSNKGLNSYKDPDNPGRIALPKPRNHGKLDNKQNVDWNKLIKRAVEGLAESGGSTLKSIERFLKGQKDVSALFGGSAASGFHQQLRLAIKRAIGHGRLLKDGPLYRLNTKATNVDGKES
| Sequence | E-score |
| --- | --- |
| AAATTAGC | 0.0509 |
| AACGGGAC | 0.243 |
| CAAACGCG | 0.229 |
| GTCAGGGA | -0.112 |
| CGCACTAG | 0.144 |
| CGAGCGAG | 0.0737 |

Other studies, line by line
| Substance | target | assay | system | setting | scale | measurement | value |
| --- | --- | --- | --- | --- | --- | --- | --- |
| PhoQ, residues 284 288 289 292 302 303 AMDMFI | PhoP, residues 12 14 15 18 19 LHTVM (Escherichia coli, UniProt P23836) | Sort-seq, measured: YFP reporter | E. coli | PhoQ-PhoP variant library, together with: 10 µM Mg2+ | reference: high Mg2+ state, higher = stronger signaling | fold induction | 1.03 |
